# Experimental data collected from several papers.
# Protocols differ between the studies behind these lines.
# Cell line: SNB-19
SMILES,test,conditions,scale,measurement,value
Cc1cc(=O)[nH]n1-c1nc(-c2ccc(Cl)cc2)c2c(NC(=O)c3ccccc3)nnc-2[nH]1,SRB,"10 µM, NCI60 single-dose screen",relative to: untreated,cell growth,91.6%
Cc1cc(=O)[nH]c(=O)n1Cc1cn(-c2cc3ccccc3oc2=O)nn1,,"10 µM, CNS cancer cell line, NCI60",,growth percentage,102%
O=C(Nc1nnc2n3c(nc(-c4ccc(Cl)cc4)c1-2)SCC3=O)c1ccccc1,SRB,"10 µM, NCI60 single-dose screen",relative to: untreated,cell growth,94.3%
CCCCN1CCN(c2ccc3[nH]c(-c4ccc5[nH]c(-c6cc(OC)c(OC)c(OC)c6)nc5c4)nc3c2)CC1,SRB,"10 µM, 48 h",,growth percent,71.9%
O=C(Nc1nnc2[nH]c(=S)[nH]c(-c3ccc(Cl)cc3)c1-2)c1ccccc1,SRB,"10 µM, NCI60 single-dose screen",relative to: untreated,cell growth,95.3%
C#C[C@@]1(O)[C@@H](CO)O[C@@H](n2cc(F)c3c(N)ncnc32)[C@@H]1O,SRB,NCI-60 screen,,TGI,13.7 µM
O=C(Nc1nnc2n3c(=S)[nH][nH]c3nc(-c3ccc(Cl)cc3)c1-2)c1ccccc1,SRB,"10 µM, NCI60 single-dose screen",relative to: untreated,cell growth,75.6%
Cc1cc(=O)[nH]c(=O)n1Cc1cn(-c2c3ccccc3nc3ccccc23)nn1,,"10 µM, CNS cancer cell line, NCI60",,growth percentage,87.3%
CN1CCN(c2ccc3[nH]c(-c4ccc5[nH]c(-c6ccc(C(F)(F)F)cc6)nc5c4)nc3c2)CC1,SRB,"10 µM, 48 h",,growth percent,74.2%
Cn1cncc1C1=CN(c2ncnc3[nH]cnc23)CCS1,,CNS cancer,,GI50,44.7 µM
COc1ccc(OC)c(-c2nc3ccc(-c4nc5ccc(N6CCN(C)CC6)cc5[nH]4)cc3[nH]2)c1,SRB,"10 µM, 48 h",,growth percent,103%
NNc1nc(-c2ccc(Cl)cc2)c2c(NC(=O)c3ccccc3)nnc-2[nH]1,SRB,"10 µM, NCI60 single-dose screen",relative to: untreated,cell growth,93.8%
O=C1NC(=NCc2cccs2)S/C1=C\c1ccc2ncccc2c1,MTS,NCI60 panel,,IC50,> 10 µM
CCCN1CCN(c2ccc3[nH]c(-c4ccc5[nH]c(-c6ccc(C(F)(F)F)cc6)nc5c4)nc3c2)CC1,SRB,"10 µM, 48 h",,growth percent,-93.8%
C#C[C@@]1(O)[C@@H](CO)O[C@@H](n2ccc3c(N)ncnc32)[C@@H]1O,SRB,NCI-60 screen,,TGI,6.6 µM
CCCCN1CCN(c2ccc3[nH]c(-c4ccc5[nH]c(-c6ccc(OCC)cc6)nc5c4)nc3c2)CC1,SRB,"10 µM, 48 h",,growth percent,85.3%
CSc1nc(-c2ccc(Cl)cc2)c2c(NC(=O)c3ccccc3)nnc-2[nH]1,SRB,"10 µM, NCI60 single-dose screen",relative to: untreated,cell growth,85.2%
CCCCN1CCN(c2ccc3[nH]c(-c4ccc5[nH]c(-c6ccc(OCC)c(OCC)c6)nc5c4)nc3c2)CC1,SRB,"10 µM, 48 h",,growth percent,-28.8%
O=c1ccn(Cc2cn(-c3c4ccccc4nc4ccccc34)nn2)c(=O)[nH]1,,"10 µM, CNS cancer cell line, NCI60",,growth percentage,94.1%

# Repeated from above:
SMILES,test,conditions,scale,measurement,value
CCCN1CCN(c2ccc3[nH]c(-c4ccc5[nH]c(-c6ccc(C(F)(F)F)cc6)nc5c4)nc3c2)CC1,SRB,"10 µM, 48 h",,growth percent,-93.8%
C#C[C@@]1(O)[C@@H](CO)O[C@@H](n2ccc3c(N)ncnc32)[C@@H]1O,SRB,NCI-60 screen,,TGI,6.6 µM
